Assay results gathered from unrelated publications.
Each numbered part is a random draw from the data of one study; scales do not carry over between parts.
Sequence of UniProt P54762 (whole entry, looked up): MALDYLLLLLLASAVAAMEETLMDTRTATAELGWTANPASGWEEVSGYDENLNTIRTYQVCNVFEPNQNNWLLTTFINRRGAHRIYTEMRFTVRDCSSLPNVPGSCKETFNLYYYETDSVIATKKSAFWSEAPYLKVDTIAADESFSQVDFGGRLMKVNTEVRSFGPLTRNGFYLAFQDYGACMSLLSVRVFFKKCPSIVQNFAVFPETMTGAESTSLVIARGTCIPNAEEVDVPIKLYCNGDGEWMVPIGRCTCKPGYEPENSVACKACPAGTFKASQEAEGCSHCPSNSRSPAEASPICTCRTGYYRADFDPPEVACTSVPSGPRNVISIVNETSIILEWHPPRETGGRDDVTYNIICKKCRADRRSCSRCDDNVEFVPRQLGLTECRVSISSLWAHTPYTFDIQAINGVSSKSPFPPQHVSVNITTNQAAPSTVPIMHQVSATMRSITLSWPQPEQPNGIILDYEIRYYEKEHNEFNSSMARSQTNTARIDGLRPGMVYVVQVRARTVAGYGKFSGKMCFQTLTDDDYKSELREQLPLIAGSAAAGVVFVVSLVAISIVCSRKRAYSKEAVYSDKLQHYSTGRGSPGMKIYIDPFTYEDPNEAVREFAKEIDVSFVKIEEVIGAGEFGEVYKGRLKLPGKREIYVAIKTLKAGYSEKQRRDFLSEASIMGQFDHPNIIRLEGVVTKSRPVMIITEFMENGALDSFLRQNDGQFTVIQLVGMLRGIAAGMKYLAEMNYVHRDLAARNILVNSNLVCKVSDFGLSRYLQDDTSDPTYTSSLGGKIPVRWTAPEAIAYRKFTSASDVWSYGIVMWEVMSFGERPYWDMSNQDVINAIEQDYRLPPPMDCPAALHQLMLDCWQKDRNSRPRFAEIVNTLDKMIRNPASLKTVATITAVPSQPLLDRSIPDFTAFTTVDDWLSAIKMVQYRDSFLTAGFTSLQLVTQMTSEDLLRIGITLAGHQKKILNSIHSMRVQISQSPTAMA
Sequence of UniProt P49760 (whole entry, looked up): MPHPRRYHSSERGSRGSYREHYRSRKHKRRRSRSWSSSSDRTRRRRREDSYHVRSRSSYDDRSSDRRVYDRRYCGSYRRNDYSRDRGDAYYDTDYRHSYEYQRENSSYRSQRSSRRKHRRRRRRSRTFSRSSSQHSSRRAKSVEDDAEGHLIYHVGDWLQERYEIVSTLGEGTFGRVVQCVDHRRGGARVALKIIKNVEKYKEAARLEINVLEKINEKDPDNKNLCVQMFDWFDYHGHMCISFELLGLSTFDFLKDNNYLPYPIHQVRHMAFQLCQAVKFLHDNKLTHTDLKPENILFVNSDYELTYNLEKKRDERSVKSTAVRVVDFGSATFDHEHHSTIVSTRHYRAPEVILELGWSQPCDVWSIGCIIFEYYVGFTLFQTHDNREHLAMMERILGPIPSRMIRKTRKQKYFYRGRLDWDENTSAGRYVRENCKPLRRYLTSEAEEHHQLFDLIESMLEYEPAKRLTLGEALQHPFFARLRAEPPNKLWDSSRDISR
Sequence of UniProt P35590 (whole entry, looked up): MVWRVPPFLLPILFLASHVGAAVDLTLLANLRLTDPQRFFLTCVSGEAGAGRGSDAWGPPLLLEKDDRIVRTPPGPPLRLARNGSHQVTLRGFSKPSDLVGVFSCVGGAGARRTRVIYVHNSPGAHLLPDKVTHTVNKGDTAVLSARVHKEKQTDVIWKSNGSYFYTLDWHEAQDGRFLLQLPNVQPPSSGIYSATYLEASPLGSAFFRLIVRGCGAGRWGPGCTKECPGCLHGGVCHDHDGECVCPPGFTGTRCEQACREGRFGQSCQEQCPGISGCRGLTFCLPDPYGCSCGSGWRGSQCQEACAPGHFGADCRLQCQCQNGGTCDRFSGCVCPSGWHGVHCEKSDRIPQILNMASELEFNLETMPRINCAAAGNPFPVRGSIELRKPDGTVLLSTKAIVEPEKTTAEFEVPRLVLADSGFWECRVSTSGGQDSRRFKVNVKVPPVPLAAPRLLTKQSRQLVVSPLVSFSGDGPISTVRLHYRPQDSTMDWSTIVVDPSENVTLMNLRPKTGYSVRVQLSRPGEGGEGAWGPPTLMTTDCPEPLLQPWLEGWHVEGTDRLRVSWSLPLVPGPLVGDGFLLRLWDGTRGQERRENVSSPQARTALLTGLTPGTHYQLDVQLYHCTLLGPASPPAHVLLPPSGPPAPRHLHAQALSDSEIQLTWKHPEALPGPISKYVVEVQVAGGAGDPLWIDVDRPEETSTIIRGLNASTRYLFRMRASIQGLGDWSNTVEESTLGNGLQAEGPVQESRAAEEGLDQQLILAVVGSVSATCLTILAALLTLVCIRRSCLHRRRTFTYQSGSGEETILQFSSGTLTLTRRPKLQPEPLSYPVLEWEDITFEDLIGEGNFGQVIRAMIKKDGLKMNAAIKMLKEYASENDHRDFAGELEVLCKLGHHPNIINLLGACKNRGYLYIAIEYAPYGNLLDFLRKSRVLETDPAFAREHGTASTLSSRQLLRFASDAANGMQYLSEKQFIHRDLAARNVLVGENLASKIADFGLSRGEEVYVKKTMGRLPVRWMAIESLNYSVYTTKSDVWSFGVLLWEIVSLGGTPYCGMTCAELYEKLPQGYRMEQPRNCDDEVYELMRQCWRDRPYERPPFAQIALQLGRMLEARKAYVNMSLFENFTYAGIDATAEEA
Sequence of UniProt O95382 (whole entry, looked up): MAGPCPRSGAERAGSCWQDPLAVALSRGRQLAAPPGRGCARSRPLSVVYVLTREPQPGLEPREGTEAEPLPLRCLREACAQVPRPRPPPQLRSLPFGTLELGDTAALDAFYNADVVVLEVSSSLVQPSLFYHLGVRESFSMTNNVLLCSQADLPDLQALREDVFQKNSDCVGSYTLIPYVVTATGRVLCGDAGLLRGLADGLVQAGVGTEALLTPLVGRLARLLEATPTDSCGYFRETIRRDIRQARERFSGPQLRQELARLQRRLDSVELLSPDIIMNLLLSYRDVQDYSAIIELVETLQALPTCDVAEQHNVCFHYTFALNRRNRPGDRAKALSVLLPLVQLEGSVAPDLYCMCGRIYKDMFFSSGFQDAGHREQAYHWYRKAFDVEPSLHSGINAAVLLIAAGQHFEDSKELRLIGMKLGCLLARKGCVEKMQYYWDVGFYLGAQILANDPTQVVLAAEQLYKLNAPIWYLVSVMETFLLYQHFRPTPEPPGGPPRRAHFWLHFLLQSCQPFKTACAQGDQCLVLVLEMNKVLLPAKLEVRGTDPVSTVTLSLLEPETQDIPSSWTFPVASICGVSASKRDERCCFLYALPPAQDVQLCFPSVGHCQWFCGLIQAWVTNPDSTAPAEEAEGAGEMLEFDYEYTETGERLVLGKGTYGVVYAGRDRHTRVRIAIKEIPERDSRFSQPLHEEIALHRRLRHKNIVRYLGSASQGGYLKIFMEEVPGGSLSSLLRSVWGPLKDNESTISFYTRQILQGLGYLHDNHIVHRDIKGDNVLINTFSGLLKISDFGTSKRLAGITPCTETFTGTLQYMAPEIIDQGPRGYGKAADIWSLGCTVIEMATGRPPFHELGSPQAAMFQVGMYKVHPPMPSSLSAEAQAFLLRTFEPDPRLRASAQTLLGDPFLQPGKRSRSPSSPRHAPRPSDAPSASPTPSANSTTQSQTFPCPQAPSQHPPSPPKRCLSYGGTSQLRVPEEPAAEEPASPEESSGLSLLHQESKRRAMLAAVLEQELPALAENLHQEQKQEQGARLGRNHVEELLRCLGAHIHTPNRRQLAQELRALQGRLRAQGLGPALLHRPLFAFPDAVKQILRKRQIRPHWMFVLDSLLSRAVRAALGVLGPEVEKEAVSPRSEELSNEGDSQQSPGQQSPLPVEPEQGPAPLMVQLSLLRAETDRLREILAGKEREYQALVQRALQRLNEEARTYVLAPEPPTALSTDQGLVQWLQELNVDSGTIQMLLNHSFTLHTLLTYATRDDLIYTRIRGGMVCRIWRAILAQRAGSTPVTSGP

Block 1
Target: Non-receptor tyrosine-protein kinase TYK2 (TYK2, Homo sapiens, UniProt P29597)
Sequence of UniProt P29597 (whole entry, looked up): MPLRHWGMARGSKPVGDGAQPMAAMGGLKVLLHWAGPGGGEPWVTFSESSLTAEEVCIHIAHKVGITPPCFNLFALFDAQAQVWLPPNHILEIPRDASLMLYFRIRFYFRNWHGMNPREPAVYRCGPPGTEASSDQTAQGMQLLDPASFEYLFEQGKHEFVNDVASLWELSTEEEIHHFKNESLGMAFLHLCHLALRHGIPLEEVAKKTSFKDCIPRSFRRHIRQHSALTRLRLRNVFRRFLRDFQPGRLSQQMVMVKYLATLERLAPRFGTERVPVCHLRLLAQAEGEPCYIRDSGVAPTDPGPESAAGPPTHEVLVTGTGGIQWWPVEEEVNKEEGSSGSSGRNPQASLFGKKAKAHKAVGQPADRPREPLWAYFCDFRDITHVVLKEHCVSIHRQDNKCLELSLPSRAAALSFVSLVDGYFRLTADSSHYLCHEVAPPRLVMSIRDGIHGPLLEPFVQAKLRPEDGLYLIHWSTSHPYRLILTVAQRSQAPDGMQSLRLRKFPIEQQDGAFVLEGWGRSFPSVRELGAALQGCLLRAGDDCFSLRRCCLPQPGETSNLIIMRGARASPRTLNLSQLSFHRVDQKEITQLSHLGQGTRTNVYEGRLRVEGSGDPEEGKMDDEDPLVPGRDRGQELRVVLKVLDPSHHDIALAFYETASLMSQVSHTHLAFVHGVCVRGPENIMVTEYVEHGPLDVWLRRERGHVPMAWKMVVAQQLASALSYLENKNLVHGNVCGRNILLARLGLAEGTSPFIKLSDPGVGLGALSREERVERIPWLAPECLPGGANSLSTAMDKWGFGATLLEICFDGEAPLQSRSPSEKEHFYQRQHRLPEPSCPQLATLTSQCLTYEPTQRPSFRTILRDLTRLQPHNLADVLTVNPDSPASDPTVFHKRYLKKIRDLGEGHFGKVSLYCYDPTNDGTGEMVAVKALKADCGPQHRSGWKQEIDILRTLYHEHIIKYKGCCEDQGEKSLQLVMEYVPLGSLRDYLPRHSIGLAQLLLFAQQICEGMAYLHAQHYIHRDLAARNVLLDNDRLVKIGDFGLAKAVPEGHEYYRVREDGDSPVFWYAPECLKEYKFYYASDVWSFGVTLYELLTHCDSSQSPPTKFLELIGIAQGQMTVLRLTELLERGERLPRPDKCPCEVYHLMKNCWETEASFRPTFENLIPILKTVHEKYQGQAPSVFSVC
Read-out: enzyme activity
Mode: inhibitor
Concentration: 0.5 µM
Reference: control
The remaining activity of `N#C/C(=C(/N)SC1C=CC=CC1)c1cccc(C(O)c2ccncc2)c1` (stereo not shown) is reported as 105%.
`O=Nc1c(-c2c(O)[nH]c3ccccc23)[nH]c2ccccc12` has a remaining activity of 24.3%.
For `c1cc(-c2cnn3cc(-c4ccc(OCCN5CCCCC5)cc4)cnc23)ccn1`, the remaining activity was 69.8%.
`FC(F)(F)c1ccc(/C=C/c2nc(COc3ccc(CCCCn4ccnn4)cc3)co2)cc1` gave a remaining activity of 99.1%.
The remaining activity of `Clc1ccc(Nc2nnc(Cc3ccncc3)c3ccccc23)cc1` is reported as 89.4%.
`N#CC(c1ccnc(NCCc2cccnc2)n1)c1nc2ccccc2s1` (stereo not shown) has a remaining activity of 83.2%.
The remaining activity of `CNc1cc2c(Nc3cccc(Br)c3)ncnc2cn1` is reported as 80.8%.
With `NC(=O)c1cccc(-c2cc(Nc3ccc(OC(F)(F)F)cc3)ncn2)c1` the remaining activity was 82.7%.
For `COc1cc2c(N3CCN(C(=O)Nc4ccc(OC(C)C)cc4)CC3)ncnc2cc1OCCCN1CCCCC1`, the remaining activity was 97.9%.
`CC(C)(C)c1nc2c3cc[nH]c(=O)c3c3cc(F)ccc3c2[nH]1` has a remaining activity of 1.48%.
For `CC(C)N(CCC(=O)c1ccc2ccccc2c1)Cc1ccccc1`, the remaining activity was 103%.
The remaining activity of `O=C1c2ccccc2-c2nc3nnnn3nc21` is reported as 77.2%.
`O=C1NC(=O)/C(=C/c2ccc3c(c2)OC(F)(F)O3)S1` gave a remaining activity of 88.4%.
With `CCCCc1c(-c2ccc(O)cc2)[nH]c2nccnc12` the remaining activity was 43.4%.
The remaining activity of `CC(C)n1cnc2c(Nc3cccc(Cl)c3)nc(NCCO)nc21` is reported as 105%.
`NC(=O)c1ccc(-c2nc(-c3ccc4c(c3)OCCO4)c(-c3ccccn3)[nH]2)cc1` has a remaining activity of 108%.
For `CCN(CC)CCCCN1c2ccccc2Oc2ccc(Cl)cc21`, the remaining activity was 96.7%.
`Nc1nc(Nc2ccc(S(N)(=O)=O)cc2)nn1C(=S)Nc1c(F)cccc1F` has a remaining activity of 5.11%.
The remaining activity of `C[C@@H](N)[C@H]1CC[C@H](C(=O)Nc2ccncc2)CC1` is reported as 89.9%.
`COc1cc2c(Nc3ccc(Br)cc3F)ncnc2cc1OCC1CCN(C)CC1` gave a remaining activity of 97.7%.
`O=C(O)/C=C/c1cc(Br)c(Br)c(Br)c1Br` has a remaining activity of 110%.
The remaining activity of `O=C(c1ccccc1)c1ccc(N2CCOCC2)cc1O` is reported as 110%.
For `O=c1c(-c2ccc(F)cc2)c(-c2ccncc2)[nH]n1-c1ccc(Cl)cc1`, the remaining activity was 90.9%.

Block 2
Host: human
Sample: microsomes or S9
Concentration: 2 µM
Time: 0.5 h
For `N#Cc1c[nH]c(C(=O)N2CC(=O)NC3CCCCC32)c1` (stereo not shown), the remaining compound was 71%.
The remaining compound of `COc1cc(OC)c(OC)cc1/C=N/N=C1\NC(=O)C(CC(=O)O)S1` (stereo not shown) is reported as 55.4%.
The remaining compound of `Clc1ccccc1/C=C/c1nc(-c2ccccn2)no1` is reported as 47.9%.
For `Cc1cnc(C(=O)Nc2cc(Cl)c(Cl)c(Cl)c2)cn1`, the remaining compound was 18.2%.
With `CC(NS(C)(=O)=O)c1nnc(N2CCC(C(C)(C)C)C2)n1CC1CCCCO1` (stereo not shown) the remaining compound was 22%.
The remaining compound of `COc1ccccc1CCN1C(O)=c2ccccc2=NC12C(=O)Nc1ccccc12` (stereo not shown) is reported as 1.2%.
`O=C(O)c1sc(C(=O)O)c(OCCO)c1OCCO` gave a remaining compound of 58.1%.
With `O=S(=O)(Nc1cc(-c2cccs2)n[nH]1)c1c[nH]c2ncccc12` the remaining compound was 22.9%.
For `CCOC(=O)C1CCN(C(=O)CCc2ccc(C(C)(C)C)cc2)CC1`, the remaining compound was 5.57%.
With `CCOC(=O)c1c2ccccc2n2/c(=C\c3ccccc3C)c3ccccc3c12` the remaining compound was 18.5%.
The remaining compound of `Cc1ccc2c(-n3ccnc3)c(-c3ccc(Cl)cc3Cl)c([S+](C)[O-])nc2c1` (stereo not shown) is reported as 66.9%.
`COc1ccc(N(C)c2cc3n(c(=O)n2)CCc2cc(OC)c(OC)cc2-3)cc1` has a remaining compound of 50.4%.
`Cn1cc(-c2nn(S(=O)(=O)c3ccc(Br)s3)c(-c3cnn(C)c3)c2Cl)cn1` gave a remaining compound of 0.412%.

Block 3
Structure (SMILES): Cc1c(C(=O)O)cc(-c2ccc(C3CCNCC3)cc2)c2ccc(-c3ccc(C(F)(F)F)cc3)cc12
Technique: competition with immobilised ligand
Concentration: 1 µM
It gave 100% for remaining binding (FLT3 (Homo sapiens, UniProt P36888, D835Y); binding).
It gave 100% for remaining binding (Aurora kinase A (AURKA, Homo sapiens, UniProt O14965); cell-free assay).
It gave 100% for remaining binding (LATS2 (Homo sapiens, UniProt Q9NRM7); binding).
RET (Homo sapiens, UniProt P07949, M918T); cell-free assay — remaining binding: 100%.
For EPHB2 (Homo sapiens, UniProt P29323); cell-free assay: remaining binding read 92%.
The remaining binding was 100% (RIOK1 (Homo sapiens, UniProt Q9BRS2); binding).
It gave 100% for remaining binding (ERBB4 (Homo sapiens, UniProt Q15303); binding).
It gave 100% for remaining binding (EIF2AK2 (Homo sapiens, UniProt P19525); binding).
TAOK3 (Homo sapiens, UniProt Q9H2K8); binding — remaining binding: 100%.
For CLK2 (Homo sapiens, UniProt P49760); binding: remaining binding read 100%.
The remaining binding was 100% (MAPK9 (Homo sapiens, UniProt P45984); binding).
The remaining binding was 100% (CDKL2 (Homo sapiens, UniProt Q92772); binding).
It gave 80% for remaining binding (Ribosomal protein S6 kinase alpha-3, C-terminal kinase domain (RPS6KA3, Homo sapiens, UniProt P51812); binding).
The remaining binding was 100% (CAMK2G (Homo sapiens, UniProt Q13555); binding).
ALK (Homo sapiens, UniProt Q9UM73, C1156Y); cell-free assay — remaining binding: 100%.
For CDK11A (Homo sapiens, UniProt Q9UQ88); binding: remaining binding read 100%.
LYN (Homo sapiens, UniProt P07948); cell-free assay — remaining binding: 90%.
The remaining binding was 100% (FLT3 (Homo sapiens, UniProt P36888, K663Q); binding).
CSNK1E (Homo sapiens, UniProt P49674); binding — remaining binding: 96%.
For MAST1 (Homo sapiens, UniProt Q9Y2H9); binding: remaining binding read 100%.
For MAPK6 (Homo sapiens, UniProt Q16659); binding: remaining binding read 100%.
For PIK3C3 (Homo sapiens, UniProt Q8NEB9); cell-free assay: remaining binding read 100%.
It gave 100% for remaining binding (EGFR (Homo sapiens, UniProt P00533, A750P/del747-749); cell-free assay).
The remaining binding was 79% (Tyrosine-protein kinase JAK1, JH2 (JAK1, Homo sapiens, UniProt P23458); binding).
For MINK1 (Homo sapiens, UniProt Q8N4C8); binding: remaining binding read 100%.

Block 4
SMILES: C=CC(=O)N1CCC([C@@H]2CCNc3c(C(N)=O)c(-c4ccc(Oc5ccccc5)cc4)nn32)CC1
Concentration: 1 µM
It gave 8% for inhibition (ABL2 (Homo sapiens, UniProt P42684); enzyme activity, inhibitor).
It gave 8% for inhibition (STK17A (Homo sapiens, UniProt Q9UEE5); enzyme activity).
For TIE1 (Homo sapiens, UniProt P35590); cell-free assay: inhibition read 13%.
For STK36 (Homo sapiens, UniProt Q9NRP7); enzyme activity, inhibitor: inhibition read 22%.
For DDR1 (Homo sapiens, UniProt Q08345); cell-free assay: inhibition read 29%.
It gave 0% for inhibition (MAP3K6 (Homo sapiens, UniProt O95382); enzyme activity, inhibitor).
For EGFR (Homo sapiens, UniProt P00533, L858R/T790M); cell-free assay: inhibition read 40%.
The inhibition was 7% (MAP2K6 (Homo sapiens, UniProt P52564); enzyme activity, inhibitor).
It gave 8% for inhibition (IKBKB (Homo sapiens, UniProt O14920); enzyme activity, inhibitor).
For SBK3 (Homo sapiens, UniProt P0C264); enzyme activity, inhibitor: inhibition read 0%.
It gave 40% for inhibition (NIM1K (Homo sapiens, UniProt Q8IY84); enzyme activity, inhibitor).
For FGR (Homo sapiens, UniProt P09769); enzyme activity, inhibitor: inhibition read 54%.
It gave 53% for inhibition (Tyrosine-protein kinase ABL1, non-phosphorylated (ABL1, Homo sapiens, UniProt P00519); enzyme activity, inhibitor).
It gave 18% for inhibition (Tyrosine-protein kinase ABL1, non-phosphorylated (ABL1, Homo sapiens, UniProt P00519, T315I); enzyme activity, inhibitor).
EPHB1 (Homo sapiens, UniProt P54762); cell-free assay — inhibition: 0%.

A few entries again (block 2):
For `CCOC(=O)C1CCN(C(=O)CCc2ccc(C(C)(C)C)cc2)CC1`, the remaining compound was 5.57%.
The remaining compound of `COc1ccccc1CCN1C(O)=c2ccccc2=NC12C(=O)Nc1ccccc12` (stereo not shown) is reported as 1.2%.
With `CC(NS(C)(=O)=O)c1nnc(N2CCC(C(C)(C)C)C2)n1CC1CCCCO1` (stereo not shown) the remaining compound was 22%.
For `N#Cc1c[nH]c(C(=O)N2CC(=O)NC3CCCCC32)c1` (stereo not shown), the remaining compound was 71%.
For `Cc1cnc(C(=O)Nc2cc(Cl)c(Cl)c(Cl)c2)cn1`, the remaining compound was 18.2%.
`O=C(O)c1sc(C(=O)O)c(OCCO)c1OCCO` gave a remaining compound of 58.1%.
